Published values from different studies.
A part holds a random share of what one study measured.
UniProt P47898, sequence (whole entry, looked up): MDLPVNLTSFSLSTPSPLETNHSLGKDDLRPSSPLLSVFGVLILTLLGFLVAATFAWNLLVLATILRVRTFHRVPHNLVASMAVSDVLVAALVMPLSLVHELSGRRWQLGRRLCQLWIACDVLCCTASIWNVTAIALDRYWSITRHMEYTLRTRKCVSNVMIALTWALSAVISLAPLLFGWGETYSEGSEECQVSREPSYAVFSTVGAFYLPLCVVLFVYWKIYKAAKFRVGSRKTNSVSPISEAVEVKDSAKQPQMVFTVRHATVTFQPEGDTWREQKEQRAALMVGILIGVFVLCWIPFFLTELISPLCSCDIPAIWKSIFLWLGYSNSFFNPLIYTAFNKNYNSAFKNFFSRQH
UniProt P37023, sequence (whole entry, looked up): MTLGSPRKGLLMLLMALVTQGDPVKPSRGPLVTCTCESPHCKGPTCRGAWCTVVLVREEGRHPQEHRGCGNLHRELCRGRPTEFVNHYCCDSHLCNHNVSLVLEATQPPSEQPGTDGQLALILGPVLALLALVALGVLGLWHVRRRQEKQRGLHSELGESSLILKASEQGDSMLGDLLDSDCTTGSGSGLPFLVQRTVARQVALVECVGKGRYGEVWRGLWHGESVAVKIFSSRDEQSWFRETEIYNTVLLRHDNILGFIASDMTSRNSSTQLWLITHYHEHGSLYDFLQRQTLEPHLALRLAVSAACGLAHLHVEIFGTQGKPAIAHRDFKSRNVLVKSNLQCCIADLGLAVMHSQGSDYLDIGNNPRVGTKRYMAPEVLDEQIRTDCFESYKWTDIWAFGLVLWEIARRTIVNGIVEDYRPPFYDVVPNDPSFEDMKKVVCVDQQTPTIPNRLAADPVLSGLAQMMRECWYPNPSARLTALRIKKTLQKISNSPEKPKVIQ
UniProt Q92772, sequence (whole entry, looked up): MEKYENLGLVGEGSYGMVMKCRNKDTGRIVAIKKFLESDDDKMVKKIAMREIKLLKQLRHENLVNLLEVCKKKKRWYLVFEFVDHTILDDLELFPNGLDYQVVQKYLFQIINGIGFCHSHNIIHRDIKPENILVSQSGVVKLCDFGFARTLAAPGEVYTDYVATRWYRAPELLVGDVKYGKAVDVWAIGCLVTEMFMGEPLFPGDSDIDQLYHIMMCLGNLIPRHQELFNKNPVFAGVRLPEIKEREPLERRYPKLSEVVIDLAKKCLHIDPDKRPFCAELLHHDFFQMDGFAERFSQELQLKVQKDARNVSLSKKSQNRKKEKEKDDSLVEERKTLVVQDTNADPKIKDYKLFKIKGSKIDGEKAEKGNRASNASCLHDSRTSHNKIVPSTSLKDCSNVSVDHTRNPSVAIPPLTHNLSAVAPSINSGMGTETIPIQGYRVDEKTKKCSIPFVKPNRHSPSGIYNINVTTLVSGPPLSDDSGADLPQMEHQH
UniProt Q6PHR2, sequence (whole entry, looked up): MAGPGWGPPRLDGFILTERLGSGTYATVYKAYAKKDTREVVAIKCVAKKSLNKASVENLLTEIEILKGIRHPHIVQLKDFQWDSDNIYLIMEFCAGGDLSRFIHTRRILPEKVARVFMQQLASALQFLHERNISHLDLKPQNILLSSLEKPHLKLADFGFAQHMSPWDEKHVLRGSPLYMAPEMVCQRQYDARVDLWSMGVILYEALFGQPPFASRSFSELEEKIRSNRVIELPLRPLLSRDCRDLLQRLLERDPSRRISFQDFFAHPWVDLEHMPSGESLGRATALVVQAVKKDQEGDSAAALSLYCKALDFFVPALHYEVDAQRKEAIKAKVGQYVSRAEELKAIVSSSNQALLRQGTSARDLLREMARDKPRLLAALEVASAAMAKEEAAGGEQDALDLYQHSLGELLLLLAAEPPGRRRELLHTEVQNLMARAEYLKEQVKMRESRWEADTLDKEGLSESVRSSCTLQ

Sample 1
Cell line: HaCaT
Concentration: 100 µM
Time: 60 h
SMILES	viability
COCCCC/C(=N\OCCN)c1ccc(C(F)(F)F)cc1	14.3%
O=C(O)c1ccccc1Nc1cccc(C(F)(F)F)c1	99.1%
Cn1c(=O)cc(N2CCC[C@@H](N)C2)n(Cc2ccccc2C#N)c1=O	119%
CN[C@@H]1[C@H](O[C@H]2[C@H](O[C@H]3[C@H](O)[C@@H](O)[C@H](NC(=N)N)[C@@H](O)[C@@H]3NC(=N)N)O[C@@H](C)[C@]2(O)CO)O[C@@H](CO)[C@H](O)[C@H]1O	126%

Sample 2
Compound: C[C@H]1CC[C@H](n2c3cnccc3c3cnc(Nc4ccc5c(n4)CCN(C(=O)CO)C5)nc32)CC1
Effect on: binding
Technique: competition with immobilised ligand
Concentration: 1 µM
target	remaining binding
Activin receptor type-1-like (ACVRL1, Homo sapiens, UniProt P37023)	100%
Cyclin-dependent kinase-like 2 (CDKL2, Homo sapiens, UniProt Q92772)	46%
Serine/threonine-protein kinase ULK3 (ULK3, Homo sapiens, UniProt Q6PHR2)	77%

Sample 3
Cell line: mouse MPNST tumor cells
Technique: high-content immunofluorescence imaging
Item: nuclear SOX9
Concentration: 10 µM
Time: 12 h
Notes: mean of 2 replicates
Baseline: DMSO control
Direction: higher = more nuclear SOX9
SMILES	nuclear SOX9 intensity
NS(=O)(=O)c1ccc2c(c1)C1C=CCC1C(c1ccc(Br)cc1)N2 (stereo not shown)	108 % of DMSO
COC(=O)[C@H]1[C@H]2C[C@@H]3c4[nH]c5cc(OC)ccc5c4CCN3C[C@H]2C[C@@H](OC(=O)c2cc(OC)c(OC)c(OC)c2)[C@@H]1OC	121 % of DMSO
COc1ccccc1-c1c[nH]c2ncc(-c3cncc(C(=O)N(C)C)c3)cc12	113 % of DMSO
Cc1cc(C)c(S(=O)(=O)Nc2cccc(C(F)(F)F)c2)c(C)c1	128 % of DMSO
O=C1c2ccccc2C(=O)C1c1ccccc1	96.5 % of DMSO

Further values, each from its own experiment
Structure (SMILES)	target	test	setting	quantity	value
CNC(=N)NCCC[C@H](NC(=O)[C@H](CC(C)C)NC(=O)NNC(=O)[C@H](Cc1ccccc1)NC(=O)[C@H](CO)NC(=O)[C@H](CC(N)=O)NC(=O)[C@@H](Cc1ccncc1)NC(=O)[C@H](N)Cc1ccc(O)cc1)C(=O)N[C@@H](Cc1ccccc1)C(N)=O	5-hydroxytryptamine receptor 5A (HTR5A, Homo sapiens, UniProt P47898)	ligand displacement	10 µM	inhibition	20.1%

A few entries again (sample 3):
SMILES	nuclear SOX9 intensity
COC(=O)[C@H]1[C@H]2C[C@@H]3c4[nH]c5cc(OC)ccc5c4CCN3C[C@H]2C[C@@H](OC(=O)c2cc(OC)c(OC)c(OC)c2)[C@@H]1OC	121 % of DMSO
COc1ccccc1-c1c[nH]c2ncc(-c3cncc(C(=O)N(C)C)c3)cc12	113 % of DMSO
